Measured values gathered from unrelated publications.
A part holds a random share of what one study measured. Substitutions count along the parent as printed.

Series 1
Target: ABI1, truncated, D143A, DHFR fusion (Arabidopsis thaliana)
Method: DHFR PCA, deep sequencing
Sample: yeast
Notes: methotrexate growth selection, single substitutions
Together with: (+)-ABA 4.8 µM
Reference: wild-type fitted maximum
Reading: higher = stronger binding
Starting sequence: PYL1, truncated, DHFR fusion (Arabidopsis thaliana); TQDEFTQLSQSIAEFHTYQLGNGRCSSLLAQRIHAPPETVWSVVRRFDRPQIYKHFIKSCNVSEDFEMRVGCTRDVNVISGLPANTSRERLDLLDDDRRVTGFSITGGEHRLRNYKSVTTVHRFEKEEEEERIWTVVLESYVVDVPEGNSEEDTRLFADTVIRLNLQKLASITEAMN
For `Y115G`, “relative binding score” read -6.73%.
`S9H` — result for “relative binding score”: 65.9%.
Under “relative binding score”, `F103T` is recorded as -20.2%.
`L91I` — result for “relative binding score”: -7.87%.
For `Y115M`, “relative binding score” read -13.4%.
`D159H` — result for “relative binding score”: -6.26%.
Under “relative binding score”, `E109C` is recorded as 36%.
`L138P`: “relative binding score” -12.6%.
`R132H`: “relative binding score” 86.1%.
`L28Y`: “relative binding score” 5%.
`E14V` — result for “relative binding score”: 22.2%.
For `T86L`, “relative binding score” read 32.3%.
`R69A` — result for “relative binding score”: 71.1%.

Series 2
Target: UBE2U UBC core domain (UniProt Q5VVX9)
Method: yeast two-hybrid
Sample: yeast
Notes: mostly zero background
Reference: not given
Reading: higher = stronger interaction
B1: DTX4 RING domain (UniProt Q9Y2E6); chain QKVRHPPDEDCTICMERLTAPSGYKGPQPTVKPDLVGKLSRCGHVYHIYCLVAMYNNGNKDGSLQCPTCKTIYGVKTGTQ
B2: MKRN1 RING domain (UniProt Q9UHC7); chain FAVQRSKDMVCGICMEVVYEKANPSERRFGILSNCNHTYCLKCIRKWRSAKQFESKIIKSCPECRITSNFVIPSE
B3: TRIM40 RING domain (UniProt Q6P9F5); chain LQKDNQEEGVCPICQESLKEAVSTNCGHLFCRVCLTQHVEKASASGVFCCPLCRKPCSEEVLG
B4: SH3RF2 RING domain (UniProt Q8TEC5); chain DDLTLLDLLECPVCFEKLDVTAKVLPCQHTFCKPCLQRVFKAHKELRCPECRTPVFSNIEAL
B5: TRIM13 RING domain (UniProt O60858); chain MELLEEDLTCPICCSLFDDPRVLPCSHNFCKKCLEGILEGSVRNSLWRPAPFKCPTCRKETSATGINS
Target sequence (chain): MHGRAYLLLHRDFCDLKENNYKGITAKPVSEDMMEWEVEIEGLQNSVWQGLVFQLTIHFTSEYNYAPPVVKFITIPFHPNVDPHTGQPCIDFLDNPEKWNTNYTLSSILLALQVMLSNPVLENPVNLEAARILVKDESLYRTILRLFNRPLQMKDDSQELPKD
Under “lacZ reporter activity”, `B1 (DTX4 RING domain)` is recorded as 0.
Under “lacZ reporter activity”, `QVDKAVFHMQSVKCLKCQEQKRAVLPCQHAALCELCAEGSECPICQPGRAHTLQS (UNK RING domain (UniProt Q9C0B0))` is recorded as 0.
Under “lacZ reporter activity”, `B2 (MKRN1 RING domain)` is recorded as 0.
`B3 (TRIM40 RING domain)`: “lacZ reporter activity” 0.
`B4 (SH3RF2 RING domain)` — result for “lacZ reporter activity”: 5450.
For `B5 (TRIM13 RING domain)`, “lacZ reporter activity” read 0.

Series 3
Target: MAFG, bZIP domain (human)
Method: DHFR protein complementation
Sample: yeast
Notes: single substitutions, most at no-binding floor
Reference: wild-type JUN-FOS pair
Reading: higher = stronger binding
Starting sequence: JUN, bZIP domain (human); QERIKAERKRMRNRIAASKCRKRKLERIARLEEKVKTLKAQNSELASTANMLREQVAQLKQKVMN; partner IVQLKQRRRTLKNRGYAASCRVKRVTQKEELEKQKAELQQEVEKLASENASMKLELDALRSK
With `K36H` the binding fitness was -1.33 natural log.
The binding fitness of `E54S` is reported as -1.27 natural log.
The binding fitness of `S47V` is reported as -1.34 natural log.
With `E54N` the binding fitness was -1.45 natural log.
For `S43W`, the binding fitness was -1.47 natural log.
`K34S` gave a binding fitness of -1.45 natural log.
The binding fitness of `T37A` is reported as -1.4 natural log.
For `Q41N`, the binding fitness was -1.18 natural log.
The binding fitness of `L31V` is reported as -1.51 natural log.
The binding fitness of `S43N` is reported as -1.48 natural log.
`R53L` gave a binding fitness of -1.58 natural log.
With `S47G` the binding fitness was -1.33 natural log.
`E44N` gave a binding fitness of -1.63 natural log.
The binding fitness of `L38A` is reported as -1.37 natural log.
With `V56F` the binding fitness was -1.46 natural log.
For `K39S`, the binding fitness was -1.37 natural log.
With `T37W` the binding fitness was -1.2 natural log.
`A57V` has a binding fitness of -1.29 natural log.

Series 4
Target: RNA binding protein fox-1 homolog 2, RRM domain, GST-SBP tag (RBFOX2, Homo sapiens, UniProt O43251-10, residues 100-194)
Method: RNA Bind-n-Seq
Form: RNA
Sample: in vitro
Tested at: 365 nM
Notes: natural RNA segment, single round, ends assumed
Reference: no-protein control
Reading: higher = stronger binding
Construct (chain): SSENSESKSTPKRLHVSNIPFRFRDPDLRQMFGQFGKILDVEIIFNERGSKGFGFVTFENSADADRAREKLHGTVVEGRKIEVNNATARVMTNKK
Under “RBNS enrichment (R)”, `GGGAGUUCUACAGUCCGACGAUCUGAACUUGCAUAUGGGGCUUAGCCUUCUAGUCACAGCCUCUAUAUUUGAUGCUAGAAAACACAUAUUUUUAAAUGGAAGAAAAAUAAAAAGGCAUUCCCCCUUCAUCCCCUGGAAUUCUCGGGUGCCAA` is recorded as 0.573.
Under “RBNS enrichment (R)”, `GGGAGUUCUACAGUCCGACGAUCCACAAACUGCUUCCUUUCUUGAUUCGUAGAUUUAAUAACUUACCUGAAGGGGUUUUCUUGAUAAUUUUCCUUUAAUAUGAAAUUUUUUUUCAUGCUUUAUCAAUAGCCCAUGGAAUUCUCGGGUGCCAA` is recorded as 1.9.
Under “RBNS enrichment (R)”, `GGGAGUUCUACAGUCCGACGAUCCAAGAAGGUAACAUCAAAUAAAUAAGUCAAGCAGAGGACUUCCUGCCAAUCUCUUCUGUGAGGCAUCAUAGACACUGAGCAACCAGGACCACCCCCACGUUCAGAAAUCAUGGAAUUCUCGGGUGCCAA` is recorded as 0.403.
For `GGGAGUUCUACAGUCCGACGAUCGAGCUGGGCCGCACCUACCCUGGGGCCCCAGGGAGCAGGACGCUCCGGGGCCCAGCACGUUGCCCUGGGCCUGUGGCCGGAGUCGGAGUCCUCUCUCCUCCUCCUGGCUUUGGAAUUCUCGGGUGCCAA`, “RBNS enrichment (R)” read 0.657.
For `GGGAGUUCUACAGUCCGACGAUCUUGGAAAACUAUAAAAAAUGCUUUGUUAAUGUGUGUAUUCCUAUGUAAAACACAUGGCUUCUUCUGUGUAUAUUUUUUAAAAUUAAAGACUUGCACAUUUAAAAAACUGUUGGAAUUCUCGGGUGCCAA`, “RBNS enrichment (R)” read 0.794.
Under “RBNS enrichment (R)”, `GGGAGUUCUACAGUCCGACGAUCGUGUGGCAGCAUUGUCCCACUUCAGAUGCCAGGAGUGGGCUCAUCCUAGAGGAGCGGAGUUUUCCGAGAGGACCAUCUCCUGGUUUCCUGAAGGAGGUGGGUGGAAACGGUGGAAUUCUCGGGUGCCAA` is recorded as 0.602.
`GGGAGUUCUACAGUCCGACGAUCAUUCACCACAGACUUUAGCUUUCUGAGCAAGAGGAUUUUGCGUCAGAGAAAUGUCUGUCCAUUUUUAUUCAGGGGAAACUUGAUUUGAGAUUUUUAUGCCUGUGACUUCCUGGAAUUCUCGGGUGCCAA`: “RBNS enrichment (R)” 0.556.
For `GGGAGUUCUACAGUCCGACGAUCUGGGACUGUUAUUCCCAGGGCUCCAGCAAGCCACUCCCUGGGUGACCUCGGGCAAGGCCCUCUCUGGGCCUCGGUGGCCUGUGGAUAAGGAGGGGAGACCCCCACUCGCCUGGAAUUCUCGGGUGCCAA`, “RBNS enrichment (R)” read 0.323.

Series 5
Target: CCNB2, cyclin fold, Cln2 fusion (human)
Method: yeast growth competition, sequencing
Sample: yeast
Notes: weak parent motif
Reference: not given
Reading: higher = stronger binding
Starting sequence: E2F8 docking peptide (human); FVPQRKLEVSTED; partner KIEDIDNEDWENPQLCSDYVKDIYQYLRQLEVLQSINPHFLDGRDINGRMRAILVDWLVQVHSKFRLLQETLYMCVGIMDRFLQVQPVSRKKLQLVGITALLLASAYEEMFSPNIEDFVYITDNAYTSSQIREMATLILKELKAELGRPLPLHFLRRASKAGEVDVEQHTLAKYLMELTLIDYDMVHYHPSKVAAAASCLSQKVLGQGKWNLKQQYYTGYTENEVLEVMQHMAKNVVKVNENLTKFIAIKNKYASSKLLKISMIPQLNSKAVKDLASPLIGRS
Under “normalised enrichment score”, `L7A` is recorded as 0.00322.
For `V2A`, “normalised enrichment score” read -0.141.
`D13A`: “normalised enrichment score” -0.211.
For `R5K`, “normalised enrichment score” read 0.0275.
`R5K V9F`: “normalised enrichment score” 0.0151.
`Q4A`: “normalised enrichment score” -0.763.
Under “normalised enrichment score”, `F1A` is recorded as -0.129.
`P3A`: “normalised enrichment score” 0.05.

Series 6
Target: Histone acetyltransferase KAT6A, winged helix 1, GST fusion (KAT6A, Homo sapiens, UniProt Q92794, residues 1-85)
Method: protein binding microarray
Form: double-stranded DNA, one strand shown
Sample: in vitro
Tested at: not given
Notes: 8-mer, flanks averaged, mean of 2 arrays, mostly near background
Reference: not given
Reading: higher = stronger binding
Construct (chain): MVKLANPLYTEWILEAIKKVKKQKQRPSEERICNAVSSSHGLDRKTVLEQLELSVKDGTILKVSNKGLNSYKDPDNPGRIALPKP
With `AGAACATC` the E-score was -0.162.
`CCATGCGA` has an E-score of -0.00283.
`ATACCCTG` has an E-score of -0.115.
`AGTCTATA` has an E-score of -0.0688.
The E-score of `AACAAAAC` is reported as -0.162.
`AGGTGGAG` has an E-score of -0.242.
The E-score of `ATCCATCC` is reported as -0.194.
`ATTCCTGA` has an E-score of -0.227.
`AATTAACC` has an E-score of 0.115.
For `AAAAGAAA`, the E-score was -0.242.
The E-score of `CTAGACGA` is reported as 0.052.
`GCGCCCAC` has an E-score of 0.228.
With `ACAATAGG` the E-score was 0.0654.
For `ACTAGCCG`, the E-score was 0.314.
`CGTCCCTC` gave an E-score of 0.071.
`AGGGTCGA` has an E-score of -0.00759.
The E-score of `AGCGTAAA` is reported as 0.0998.
`GCATGTCA` gave an E-score of -0.0297.
The E-score of `CACACGGA` is reported as 0.276.
With `ACCTACTA` the E-score was 0.0136.
With `AAAACCTA` the E-score was 0.0367.
With `CCAGTGGC` the E-score was -0.193.
The E-score of `ACGACAGC` is reported as -0.118.
`TCACTTAA` has an E-score of -0.147.
The E-score of `CGGGACCA` is reported as 0.123.
